Measured values pooled from the literature.
Every numbered part comes from another study and shows a few of its results, in no order.

Block 1 — technique: protein binding microarray; molecule type: double-stranded DNA, one strand shown; medium: in vitro; tested at: not given; relative to: not given; reading: higher = stronger binding
Target: Histone acetyltransferase KAT6A, winged helix 2, GST fusion (KAT6A, Homo sapiens, UniProt Q92794, residues 85-181)
Setting: 8-mer, flanks averaged, mean of 2 arrays, mostly near background
Construct (chain): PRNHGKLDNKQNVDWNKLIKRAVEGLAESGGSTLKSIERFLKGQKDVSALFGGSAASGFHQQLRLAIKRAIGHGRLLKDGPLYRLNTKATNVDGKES
| Sequence | E-score |
| --- | --- |
| ACGGGCAA | 0.0563 |
| CCACCTGA | -0.0972 |
| GACGGTGC | 0.0369 |
| AAAAACGG | 0.0261 |

Block 2 — technique: protein-binding microarray; molecule type: double-stranded DNA, one strand shown; medium: in vitro; tested at: 2200 nM top; setting: 60-bp whole probe; together with: salmon DNA 0.4 mg/ml; relative to: random background probes; reading: higher = stronger binding
Target: Interferon regulatory factor 7, full length, phosphomimetic (IRF7, Homo sapiens, UniProt Q92985, residues 1-503, S471D/S472D/S475D/S476D/S477D/S483D/S484D/S487D)
Sequence of UniProt Q92985 (whole entry, unmodified, looked up): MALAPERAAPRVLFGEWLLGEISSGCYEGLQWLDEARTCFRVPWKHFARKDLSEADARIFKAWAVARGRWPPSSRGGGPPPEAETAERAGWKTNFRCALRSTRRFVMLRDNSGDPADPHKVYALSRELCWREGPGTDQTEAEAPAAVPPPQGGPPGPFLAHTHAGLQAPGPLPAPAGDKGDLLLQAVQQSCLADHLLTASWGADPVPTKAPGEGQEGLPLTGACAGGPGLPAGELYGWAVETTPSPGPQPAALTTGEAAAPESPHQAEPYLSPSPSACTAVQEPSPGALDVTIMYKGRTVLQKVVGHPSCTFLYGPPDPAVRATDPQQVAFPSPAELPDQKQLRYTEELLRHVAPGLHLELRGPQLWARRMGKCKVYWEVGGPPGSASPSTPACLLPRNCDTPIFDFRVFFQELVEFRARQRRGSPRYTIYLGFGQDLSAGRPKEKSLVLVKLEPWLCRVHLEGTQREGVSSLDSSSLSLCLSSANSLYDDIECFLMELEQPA
| Sequence | fitted relative affinity |
| --- | --- |
| GCCTAGCACTCCATTTTCTGAATGCCTTGGTGCTAGGTCTTGATTCGCTTGACGCTGCTG | 4.32 z-score |
| GCCTAGCACTGAGTGAAAGGCCCATACATGTGCTAGGTCTTGATTCGCTTGACGCTGCTG | -0.691 z-score |
| GCCTAGCACTACGGTATCGGTATCGGGACGTGCTAGGTCTTGATTCGCTTGACGCTGCTG | 0.498 z-score |
| GCCTAGCACGACGGTATCCTACGGCTGACGTGCTAGGTCTTGATTCGCTTGACGCTGCTG | 0.16 z-score |

Block 3 — technique: aptamer microarray, sandwich; molecule type: DNA with 2'F-ANA; medium: in vitro; tested at: 200 nM; together with: Cy3 exosite-II aptamer, 400 nM; reading: higher = stronger binding; sequence: GGTTGGTGTGGTTGG
Target: Prothrombin, mature alpha-thrombin (F2, Homo sapiens, UniProt P00734)
Setting: whole 15-mer aptamer, many near background
| Modification | mean fluorescence intensity |
| --- | --- |
| 2'F-ANA at 1 3 5 8 9 10 11 12 13 15 | 110 a.u. |
| 2'F-ANA at 1 2 4 8 9 10 11 12 13 | 55.3 a.u. |
| 2'F-ANA at 3 4 5 6 8 12 14 15 | 55.4 a.u. |
| 2'F-ANA at 3 4 6 7 8 9 12 | 998 a.u. |
| 2'F-ANA at 1 3 4 10 11 12 13 14 | 65.1 a.u. |
| 2'F-ANA at 2 4 5 6 7 10 13 14 15 | 45.3 a.u. |
| 2'F-ANA at 1 2 4 7 15 | 166 a.u. |

Mixed results
| Substance | target | assay | system | setting | how to read | measurement | result |
| --- | --- | --- | --- | --- | --- | --- | --- |
| PhoQ, residues 284 288 289 292 302 303 TVTVVA | PhoP, residues 12 14 15 18 19 SQCLL (Escherichia coli, UniProt P23836) | Sort-seq, refers to: YFP reporter | E. coli | PhoQ-PhoP variant library, together with: 10 µM Mg2+ | relative to: high Mg2+ state, higher = stronger signaling | fold induction | 12.1 |
